{"data": "Results of several laboratories", "note": "Parts stem from different laboratories: compare values within a part only. Changes are numbered by the printed parent chain."}
{"data": "Series 1", "target": "Ras GTPase-activating protein-binding protein 1, RRM domain (G3BP1, Homo sapiens, UniProt Q13283)", "method": "RNA Bind-n-Seq", "form": "RNA", "matrix": "in vitro", "concentration": "1 µM", "setting": "whole 134-nt RNA, ends assumed", "with": "150 mM KCl", "relative to": "input library", "reading": "higher = stronger binding", "constant ends, left off below": "GGGAGUUCUACAGUCCGACGAUC … UGGAAUUCUCGGGUGUCAAGG", "chain of UniProt Q13283 (whole entry, looked up)": "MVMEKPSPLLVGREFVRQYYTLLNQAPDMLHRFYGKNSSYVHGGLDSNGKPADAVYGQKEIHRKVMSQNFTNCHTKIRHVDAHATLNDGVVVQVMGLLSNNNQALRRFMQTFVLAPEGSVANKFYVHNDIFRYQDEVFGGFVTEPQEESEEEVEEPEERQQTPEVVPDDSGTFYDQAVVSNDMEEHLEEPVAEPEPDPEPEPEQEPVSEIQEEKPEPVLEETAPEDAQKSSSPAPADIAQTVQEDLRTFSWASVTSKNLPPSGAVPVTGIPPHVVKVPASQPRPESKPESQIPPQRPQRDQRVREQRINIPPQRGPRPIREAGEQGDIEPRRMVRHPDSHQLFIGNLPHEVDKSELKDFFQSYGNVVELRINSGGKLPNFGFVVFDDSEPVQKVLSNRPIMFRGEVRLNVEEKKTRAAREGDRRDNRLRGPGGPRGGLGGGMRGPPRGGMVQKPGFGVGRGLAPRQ"}
{"Sequence": "CAAGUCCUGUGCUACACAUCGUAUGUACCGAAUCGGGAGGGAAAAAAAGGGAGGGAAAGUAUUAUGUUACGCCGUUCGGAUCUGCACUUC", "log2 enrichment": 0.687}
{"Sequence": "UUCCGCUGUCUUUUCUGUCUACAGUUUGCGAUCCCCGCGUCCAGGAUGGAGCAGCUGAACGAACUGGAGCUGCUGAUGGAGAAGAGUUUU", "log2 enrichment": -0.206}
{"Sequence": "UACAGACAACACGCACCCACACAGACACAGAGGGAAGGGGUUGGGAUGGGGACAGGGUGCACAGCAGGGCGGGGUAGGACCCCAGCCCCU", "log2 enrichment": -0.0566}
{"Sequence": "CACAGACAACACCCACCCACACAGACACAGAGGGAAGGGGUUGGGAUGGGGACAGGGUGCACAGCAGGGCGGGGUAGGACCCCAGCCCCU", "log2 enrichment": -0.0381}
{"Sequence": "CUCAAGUCCUGUGCUACACAUCGUAUGUACCGAAUCGGGCCGGGGCCGGCCGGGAAAGUAUUAUGUUACGCCGUUCGGAUCUGCACUUCC", "log2 enrichment": -0.405}
{"Sequence": "GCAGGAAGUAAAAACGAAUGGAAAUGCUUCGGAUAGUGGCAGGGGUGGGGGUUGCUAAGGAAAGGGUGGGAUGGGAGUGGGUAAAGAGUU", "log2 enrichment": 1.1}
{"Sequence": "UCCUGUGCUACACAUCGUAUGUACCGAAUCGGGAAAAAAAGGGAAAGGGUUUUUUUGGGAAAGUAUUAUGUUACGCCGUUCGGAUCUGCA", "log2 enrichment": 0.00593}
{"Sequence": "CCUCAAGUCCUGUGCUACACAUCGUAUGUACCGAAUCGGGAGGAGGGAGGGGAAAGUAUUAUGUUACGCCGUUCGGAUCUGCACUUCCAG", "log2 enrichment": 0.35}
{"Sequence": "UCGGACGCCGCCAACCUGCACGAGUUCCACGCGGACCUGCGCUCAUGCUUUGCACCCCAGCACAUGGCCAUGCUGUGUAGCCCCAUCCUC", "log2 enrichment": 0.109}
{"data": "Series 2", "target": "CCNF, cyclin fold, Cln2 fusion (human)", "method": "yeast growth competition, sequencing", "matrix": "yeast", "setting": "strong parent motif", "relative to": "not given", "reading": "higher = stronger binding", "starting sequence": "SCAPER docking peptide (human); SNARRSLNFGGST; partner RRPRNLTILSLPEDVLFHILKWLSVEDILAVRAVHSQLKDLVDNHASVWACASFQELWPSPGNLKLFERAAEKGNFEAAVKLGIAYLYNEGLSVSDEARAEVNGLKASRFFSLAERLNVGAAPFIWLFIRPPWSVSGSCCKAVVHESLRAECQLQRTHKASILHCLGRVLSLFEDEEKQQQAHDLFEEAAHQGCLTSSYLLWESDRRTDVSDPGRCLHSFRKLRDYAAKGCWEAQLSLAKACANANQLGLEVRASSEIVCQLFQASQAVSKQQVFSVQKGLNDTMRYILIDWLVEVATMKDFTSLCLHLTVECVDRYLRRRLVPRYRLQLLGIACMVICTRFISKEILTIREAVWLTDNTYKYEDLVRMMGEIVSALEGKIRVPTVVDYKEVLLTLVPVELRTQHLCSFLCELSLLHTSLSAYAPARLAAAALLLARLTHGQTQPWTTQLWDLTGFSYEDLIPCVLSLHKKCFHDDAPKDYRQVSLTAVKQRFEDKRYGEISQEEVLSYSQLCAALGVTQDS"}
{"Substitution": "R5K", "normalised enrichment score": 3.94}
{"Substitution": "R4E", "normalised enrichment score": 0.177}
{"Substitution": "R5K F9L", "normalised enrichment score": 1.07}
{"Substitution": "S6W", "normalised enrichment score": 7.39}
{"Substitution": "F9G", "normalised enrichment score": 0.255}
{"Substitution": "S1G", "normalised enrichment score": 7.91}
{"Substitution": "S12L", "normalised enrichment score": 7.97}
{"Substitution": "L7F", "normalised enrichment score": 0.635}
{"Substitution": "N2K", "normalised enrichment score": 6.72}
{"Substitution": "G10H", "normalised enrichment score": 5.82}
{"Substitution": "S12V", "normalised enrichment score": 7.26}
{"Substitution": "G11H", "normalised enrichment score": 6.81}
{"Substitution": "L7C", "normalised enrichment score": 0.784}
{"Substitution": "G11T", "normalised enrichment score": 7.54}
{"Substitution": "A3S", "normalised enrichment score": 2.56}
{"Substitution": "S6K", "normalised enrichment score": 9.14}
{"Substitution": "S1V", "normalised enrichment score": 8.59}
{"Substitution": "S6T", "normalised enrichment score": 6.64}
{"Substitution": "N2I", "normalised enrichment score": 6.06}
{"Substitution": "G11L", "normalised enrichment score": 7.26}
{"Substitution": "N2M", "normalised enrichment score": 5.19}
{"Substitution": "G10A", "normalised enrichment score": 7.12}
{"Substitution": "L7I", "normalised enrichment score": 3.65}
{"Substitution": "F9K", "normalised enrichment score": 1.03}
{"Substitution": "A3Q", "normalised enrichment score": 0.938}
{"data": "Series 3", "target": "Histone acetyltransferase KAT6A, both winged helices, GST fusion (KAT6A, Homo sapiens, UniProt Q92794, residues 1-181)", "method": "protein binding microarray", "form": "double-stranded DNA, one strand shown", "matrix": "in vitro", "concentration": "not given", "setting": "8-mer, flanks averaged, mean of 2 arrays, mostly near background", "relative to": "not given", "reading": "higher = stronger binding", "Construct (chain)": "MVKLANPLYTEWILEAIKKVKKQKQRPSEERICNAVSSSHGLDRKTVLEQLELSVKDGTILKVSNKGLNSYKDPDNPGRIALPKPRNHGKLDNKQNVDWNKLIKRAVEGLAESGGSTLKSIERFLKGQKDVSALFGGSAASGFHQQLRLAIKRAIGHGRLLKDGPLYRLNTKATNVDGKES"}
{"Sequence": "GCAGTACA", "E-score": -0.13}
{"Sequence": "CCAATCAG", "E-score": -0.354}
{"Sequence": "CAACAGGC", "E-score": 0.0504}
{"Sequence": "AAATGATT", "E-score": -0.0919}
{"Sequence": "GAGAACTA", "E-score": -0.0585}
{"Sequence": "TCCTTGCA", "E-score": -0.0907}
{"Sequence": "ACCATGGC", "E-score": -0.0829}
{"Sequence": "ACGTCCAA", "E-score": -0.00585}
{"Sequence": "AGTACAAC", "E-score": -0.0332}
{"Sequence": "GCAACCTA", "E-score": -0.114}
{"Sequence": "CGCTATCA", "E-score": 0.187}
{"Sequence": "CCGGGGAC", "E-score": 0.0659}
{"Sequence": "AAGGATGA", "E-score": -0.109}
{"Sequence": "AGTAAGCA", "E-score": -0.192}
{"Sequence": "AAAGGCCA", "E-score": -0.18}
{"Sequence": "ACCTCTAT", "E-score": -0.0416}
{"Sequence": "CTCAAGGC", "E-score": -0.171}
{"Sequence": "AGAGGACT", "E-score": -0.11}
{"Sequence": "CACACGTC", "E-score": -0.00958}
{"Sequence": "ATTGCCTA", "E-score": -0.136}
{"Sequence": "TAGTTGCA", "E-score": -0.0872}
{"Sequence": "GCTATACC", "E-score": 0.108}
{"Sequence": "GAATATCC", "E-score": 0.0121}
{"Sequence": "GTACTCCA", "E-score": -0.115}
{"Sequence": "CCGGAACC", "E-score": 0.175}
{"data": "Series 4", "target": "ABI1, truncated, D143A, DHFR fusion (Arabidopsis thaliana)", "method": "DHFR PCA, deep sequencing", "matrix": "yeast", "setting": "methotrexate growth selection, single substitutions", "with": "(+)-ABA 0 µM", "relative to": "wild-type fitted maximum", "reading": "higher = stronger binding", "starting sequence": "PYL1, truncated, DHFR fusion (Arabidopsis thaliana); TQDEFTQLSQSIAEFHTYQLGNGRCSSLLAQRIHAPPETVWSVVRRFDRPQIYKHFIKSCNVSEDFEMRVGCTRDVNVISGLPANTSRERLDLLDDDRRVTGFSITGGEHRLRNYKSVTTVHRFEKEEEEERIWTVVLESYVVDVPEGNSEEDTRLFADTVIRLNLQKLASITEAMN; partner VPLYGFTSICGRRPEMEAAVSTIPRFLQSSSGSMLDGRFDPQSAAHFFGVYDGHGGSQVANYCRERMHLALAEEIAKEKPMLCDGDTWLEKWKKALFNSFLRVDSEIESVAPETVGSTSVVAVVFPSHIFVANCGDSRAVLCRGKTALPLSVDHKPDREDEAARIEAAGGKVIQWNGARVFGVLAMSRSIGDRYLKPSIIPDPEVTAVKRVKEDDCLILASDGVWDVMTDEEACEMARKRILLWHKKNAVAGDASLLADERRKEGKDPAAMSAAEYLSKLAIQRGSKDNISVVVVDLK"}
{"Substitution": "L169H", "relative binding score": "5.48%"}
{"Substitution": "H55K", "relative binding score": "-0.29%"}
{"Substitution": "N85D", "relative binding score": "11.6%"}
{"Substitution": "G108H", "relative binding score": "-3.89%"}
{"Substitution": "E130H", "relative binding score": "26.6%"}
{"Substitution": "S140W", "relative binding score": "7.36%"}
{"Substitution": "C72F", "relative binding score": "-0.315%"}
{"Substitution": "L112V", "relative binding score": "-1.87%"}
{"Substitution": "A35L", "relative binding score": "0.834%"}
{"Substitution": "R99D", "relative binding score": "-4.94%"}
{"Substitution": "V40K", "relative binding score": "-1.13%"}
{"Substitution": "V161K", "relative binding score": "1.94%"}
{"Substitution": "D75E", "relative binding score": "46.3%"}
{"Substitution": "P83M", "relative binding score": "1.2%"}
{"Substitution": "A30L", "relative binding score": "13.9%"}
{"Substitution": "V70M", "relative binding score": "-0.849%"}
{"data": "Series 5", "target": "PABPC1L2, full length, GST fusion (mouse, UniProt A0ABA7IW68)", "method": "RNAcompete", "form": "RNA", "matrix": "in vitro", "concentration": "20 nM", "setting": "7-mer, probes averaged, single round", "relative to": "mean of 7-mers", "reading": "higher = stronger binding", "Construct (chain)": "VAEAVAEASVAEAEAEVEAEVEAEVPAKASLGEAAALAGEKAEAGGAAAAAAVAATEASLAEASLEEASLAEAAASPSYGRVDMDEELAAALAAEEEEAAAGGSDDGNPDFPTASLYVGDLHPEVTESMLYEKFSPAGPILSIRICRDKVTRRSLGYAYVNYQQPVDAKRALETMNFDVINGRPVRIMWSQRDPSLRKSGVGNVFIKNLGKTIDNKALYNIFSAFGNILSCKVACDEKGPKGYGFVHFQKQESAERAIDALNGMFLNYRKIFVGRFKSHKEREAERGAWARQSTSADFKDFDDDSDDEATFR"}
{"Sequence": "UUUCCAG", "7-mer Z-score": -0.378}
{"Sequence": "GUGAAGG", "7-mer Z-score": 0.153}
{"Sequence": "UUAUGUG", "7-mer Z-score": -0.0844}
{"Sequence": "GCUACAC", "7-mer Z-score": -0.0591}
{"Sequence": "GCAAUCU", "7-mer Z-score": -0.0464}
{"Sequence": "AUUAUGC", "7-mer Z-score": -0.161}
{"Sequence": "GAUGCGC", "7-mer Z-score": -0.166}
{"Sequence": "CGAUGUA", "7-mer Z-score": -0.101}
{"Sequence": "GCGCUUG", "7-mer Z-score": -0.244}
{"Sequence": "UGUCGCU", "7-mer Z-score": -0.264}
{"Sequence": "CGGGAUU", "7-mer Z-score": -0.0156}
{"Sequence": "GCCCCCA", "7-mer Z-score": -0.403}
{"Sequence": "UACAACA", "7-mer Z-score": 0.303}
{"Sequence": "ACAUGUG", "7-mer Z-score": 0.108}
{"Sequence": "GUGGUUU", "7-mer Z-score": -0.335}
{"Sequence": "UAAACCC", "7-mer Z-score": 0.0805}
{"Sequence": "AUAUCGC", "7-mer Z-score": -0.139}
{"Sequence": "AAUAGUU", "7-mer Z-score": 0.075}
{"Sequence": "ACCCCUG", "7-mer Z-score": -0.289}
{"Sequence": "AUGGGAC", "7-mer Z-score": 0.198}
{"Sequence": "GCGACAC", "7-mer Z-score": -0.0536}
{"Sequence": "CCUUUGC", "7-mer Z-score": -0.432}
{"Sequence": "CGCGUUC", "7-mer Z-score": -0.365}
{"Sequence": "UUGCAUA", "7-mer Z-score": -0.168}
{"Sequence": "AUCCGAU", "7-mer Z-score": -0.242}
{"note": "A few entries again (series 5):"}
{"Sequence": "UUAUGUG", "7-mer Z-score": -0.0844}
{"Sequence": "GCUACAC", "7-mer Z-score": -0.0591}
{"Sequence": "GCAAUCU", "7-mer Z-score": -0.0464}
{"Sequence": "AUUAUGC", "7-mer Z-score": -0.161}
{"Sequence": "GAUGCGC", "7-mer Z-score": -0.166}
{"Sequence": "CGAUGUA", "7-mer Z-score": -0.101}
{"Sequence": "GCGCUUG", "7-mer Z-score": -0.244}
{"Sequence": "UGUCGCU", "7-mer Z-score": -0.264}
{"Sequence": "CGGGAUU", "7-mer Z-score": -0.0156}
{"Sequence": "GCCCCCA", "7-mer Z-score": -0.403}
